Measurements collected from several papers.
Lines come from different studies, so protocols differ. Values joined by “and” are separate records of one study, mostly repeats; a detail may differ. Numbers after ± are the reported error.
DCPS: m7GpppX diphosphatase (DCPS, Homo sapiens, UniProt Q96C86)
UniProt Q96C86, sequence (whole entry, looked up): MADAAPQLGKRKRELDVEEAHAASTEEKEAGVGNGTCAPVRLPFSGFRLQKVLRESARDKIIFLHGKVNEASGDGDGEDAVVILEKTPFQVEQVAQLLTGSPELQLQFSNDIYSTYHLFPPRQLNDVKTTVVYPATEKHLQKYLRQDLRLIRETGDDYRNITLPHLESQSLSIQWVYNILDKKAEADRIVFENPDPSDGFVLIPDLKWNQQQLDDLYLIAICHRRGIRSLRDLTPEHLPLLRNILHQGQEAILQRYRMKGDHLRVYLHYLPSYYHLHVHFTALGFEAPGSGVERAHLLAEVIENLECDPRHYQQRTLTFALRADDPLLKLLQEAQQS
CASP8: Caspase-8 (CASP8, Homo sapiens, UniProt Q14790)
UniProt Q14790, sequence (whole entry, looked up): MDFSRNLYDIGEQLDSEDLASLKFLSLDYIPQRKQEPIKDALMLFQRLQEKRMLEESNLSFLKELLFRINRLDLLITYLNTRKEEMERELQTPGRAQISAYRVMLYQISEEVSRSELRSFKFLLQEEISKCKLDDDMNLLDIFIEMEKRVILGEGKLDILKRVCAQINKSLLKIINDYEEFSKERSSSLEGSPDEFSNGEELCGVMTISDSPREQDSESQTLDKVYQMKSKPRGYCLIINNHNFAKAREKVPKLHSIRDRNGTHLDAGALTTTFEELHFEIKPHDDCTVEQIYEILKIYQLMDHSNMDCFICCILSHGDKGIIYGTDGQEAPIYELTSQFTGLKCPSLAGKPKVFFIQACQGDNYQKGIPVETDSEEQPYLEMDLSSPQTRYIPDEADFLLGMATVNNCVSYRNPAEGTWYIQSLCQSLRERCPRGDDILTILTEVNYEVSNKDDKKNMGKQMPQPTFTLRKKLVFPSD
PTPN11: Tyrosine-protein phosphatase non-receptor type 11 (PTPN11, Homo sapiens, UniProt Q06124)
HSD3B1: 3 beta-hydroxysteroid dehydrogenase/Delta 5-->4-isomerase type 1 (HSD3B1, Homo sapiens, UniProt P14060)
UniProt P14060, sequence (whole entry, looked up): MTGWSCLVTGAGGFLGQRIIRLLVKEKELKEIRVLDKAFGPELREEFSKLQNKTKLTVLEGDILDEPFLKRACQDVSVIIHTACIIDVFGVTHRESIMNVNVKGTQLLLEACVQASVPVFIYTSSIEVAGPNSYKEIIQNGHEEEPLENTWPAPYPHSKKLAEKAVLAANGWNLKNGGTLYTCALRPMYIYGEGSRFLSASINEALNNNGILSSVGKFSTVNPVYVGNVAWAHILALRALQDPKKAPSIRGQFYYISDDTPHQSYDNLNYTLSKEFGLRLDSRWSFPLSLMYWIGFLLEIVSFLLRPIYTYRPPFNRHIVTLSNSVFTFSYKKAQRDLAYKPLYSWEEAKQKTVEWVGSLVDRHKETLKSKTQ
CASP10: Caspase-10 (CASP10, Homo sapiens, UniProt Q92851)
UniProt P45983, sequence (whole entry, looked up): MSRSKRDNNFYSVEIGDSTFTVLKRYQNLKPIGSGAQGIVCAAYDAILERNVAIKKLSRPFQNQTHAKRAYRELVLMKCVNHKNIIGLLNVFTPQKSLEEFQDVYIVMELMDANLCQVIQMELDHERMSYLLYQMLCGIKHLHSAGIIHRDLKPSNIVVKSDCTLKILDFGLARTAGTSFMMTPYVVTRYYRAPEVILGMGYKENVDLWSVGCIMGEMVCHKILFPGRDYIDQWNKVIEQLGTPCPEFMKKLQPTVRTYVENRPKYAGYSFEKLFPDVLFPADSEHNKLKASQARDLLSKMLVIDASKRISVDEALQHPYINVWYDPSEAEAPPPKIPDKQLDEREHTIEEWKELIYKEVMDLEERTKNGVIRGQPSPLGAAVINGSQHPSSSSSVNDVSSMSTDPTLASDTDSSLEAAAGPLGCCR
UniProt Q92851, sequence (whole entry, looked up): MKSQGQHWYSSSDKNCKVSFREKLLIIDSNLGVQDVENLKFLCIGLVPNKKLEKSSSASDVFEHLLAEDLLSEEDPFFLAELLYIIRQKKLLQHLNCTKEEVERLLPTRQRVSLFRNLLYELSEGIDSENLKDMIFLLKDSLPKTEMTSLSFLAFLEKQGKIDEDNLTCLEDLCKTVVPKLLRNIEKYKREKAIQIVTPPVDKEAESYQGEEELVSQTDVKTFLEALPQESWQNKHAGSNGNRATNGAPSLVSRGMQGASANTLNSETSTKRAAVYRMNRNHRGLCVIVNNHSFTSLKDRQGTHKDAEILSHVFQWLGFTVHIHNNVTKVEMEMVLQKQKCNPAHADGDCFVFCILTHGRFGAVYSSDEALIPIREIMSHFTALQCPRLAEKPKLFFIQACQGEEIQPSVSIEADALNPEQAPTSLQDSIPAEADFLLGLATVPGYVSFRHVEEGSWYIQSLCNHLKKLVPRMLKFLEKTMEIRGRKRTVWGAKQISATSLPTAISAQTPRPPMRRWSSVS
UniProt P46089, sequence (whole entry, looked up): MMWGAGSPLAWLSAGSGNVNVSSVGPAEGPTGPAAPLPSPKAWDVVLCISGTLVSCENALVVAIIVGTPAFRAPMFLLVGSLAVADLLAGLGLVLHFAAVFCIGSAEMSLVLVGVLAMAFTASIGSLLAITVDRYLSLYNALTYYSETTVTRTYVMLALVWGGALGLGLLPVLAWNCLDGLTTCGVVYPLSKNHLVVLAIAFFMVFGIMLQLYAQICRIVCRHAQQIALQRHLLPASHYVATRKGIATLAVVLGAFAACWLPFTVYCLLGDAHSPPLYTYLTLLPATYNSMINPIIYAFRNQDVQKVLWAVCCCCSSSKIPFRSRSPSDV
UniProt P54577, sequence (whole entry, looked up): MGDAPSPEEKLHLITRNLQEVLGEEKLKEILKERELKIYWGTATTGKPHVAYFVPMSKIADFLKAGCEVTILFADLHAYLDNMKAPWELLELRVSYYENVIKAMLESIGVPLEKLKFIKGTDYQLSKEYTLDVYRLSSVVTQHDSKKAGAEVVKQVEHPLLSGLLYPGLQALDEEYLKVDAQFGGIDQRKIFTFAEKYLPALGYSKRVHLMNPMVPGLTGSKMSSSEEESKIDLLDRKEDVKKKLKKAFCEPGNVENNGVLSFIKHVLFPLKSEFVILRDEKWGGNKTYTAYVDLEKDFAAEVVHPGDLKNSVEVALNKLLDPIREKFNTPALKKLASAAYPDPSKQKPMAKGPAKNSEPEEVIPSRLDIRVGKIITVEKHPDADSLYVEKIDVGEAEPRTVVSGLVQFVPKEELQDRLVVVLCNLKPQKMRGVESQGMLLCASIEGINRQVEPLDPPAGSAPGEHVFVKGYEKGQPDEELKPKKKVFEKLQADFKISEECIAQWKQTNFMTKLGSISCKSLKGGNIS
UniProt Q13158, sequence (whole entry, looked up): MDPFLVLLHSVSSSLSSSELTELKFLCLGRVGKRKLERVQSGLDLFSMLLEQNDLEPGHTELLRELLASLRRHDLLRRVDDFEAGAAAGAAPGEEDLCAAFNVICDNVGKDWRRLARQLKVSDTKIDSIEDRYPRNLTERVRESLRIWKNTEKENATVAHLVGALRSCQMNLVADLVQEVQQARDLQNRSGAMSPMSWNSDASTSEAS
UniProt Q96JM7, sequence (whole entry, looked up): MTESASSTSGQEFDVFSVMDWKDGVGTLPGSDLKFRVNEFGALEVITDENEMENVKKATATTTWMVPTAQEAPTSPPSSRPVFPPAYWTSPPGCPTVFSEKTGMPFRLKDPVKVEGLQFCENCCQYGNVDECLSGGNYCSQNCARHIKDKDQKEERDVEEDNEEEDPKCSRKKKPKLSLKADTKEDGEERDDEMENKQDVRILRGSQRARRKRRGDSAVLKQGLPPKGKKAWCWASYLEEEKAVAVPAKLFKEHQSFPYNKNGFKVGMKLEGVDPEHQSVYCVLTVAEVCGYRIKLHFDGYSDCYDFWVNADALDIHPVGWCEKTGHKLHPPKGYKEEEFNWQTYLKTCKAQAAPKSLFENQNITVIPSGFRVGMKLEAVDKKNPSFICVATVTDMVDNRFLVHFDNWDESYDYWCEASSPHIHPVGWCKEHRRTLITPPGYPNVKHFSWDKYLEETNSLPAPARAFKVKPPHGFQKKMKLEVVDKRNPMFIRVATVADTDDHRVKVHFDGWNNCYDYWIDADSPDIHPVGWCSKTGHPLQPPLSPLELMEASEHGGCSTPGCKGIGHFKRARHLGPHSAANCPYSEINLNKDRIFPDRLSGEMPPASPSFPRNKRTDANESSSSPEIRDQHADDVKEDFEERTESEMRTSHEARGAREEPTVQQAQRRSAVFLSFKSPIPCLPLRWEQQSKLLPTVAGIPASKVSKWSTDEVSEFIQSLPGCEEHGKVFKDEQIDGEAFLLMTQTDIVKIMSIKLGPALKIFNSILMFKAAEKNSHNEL
UniProt Q9HB29, sequence (whole entry, looked up): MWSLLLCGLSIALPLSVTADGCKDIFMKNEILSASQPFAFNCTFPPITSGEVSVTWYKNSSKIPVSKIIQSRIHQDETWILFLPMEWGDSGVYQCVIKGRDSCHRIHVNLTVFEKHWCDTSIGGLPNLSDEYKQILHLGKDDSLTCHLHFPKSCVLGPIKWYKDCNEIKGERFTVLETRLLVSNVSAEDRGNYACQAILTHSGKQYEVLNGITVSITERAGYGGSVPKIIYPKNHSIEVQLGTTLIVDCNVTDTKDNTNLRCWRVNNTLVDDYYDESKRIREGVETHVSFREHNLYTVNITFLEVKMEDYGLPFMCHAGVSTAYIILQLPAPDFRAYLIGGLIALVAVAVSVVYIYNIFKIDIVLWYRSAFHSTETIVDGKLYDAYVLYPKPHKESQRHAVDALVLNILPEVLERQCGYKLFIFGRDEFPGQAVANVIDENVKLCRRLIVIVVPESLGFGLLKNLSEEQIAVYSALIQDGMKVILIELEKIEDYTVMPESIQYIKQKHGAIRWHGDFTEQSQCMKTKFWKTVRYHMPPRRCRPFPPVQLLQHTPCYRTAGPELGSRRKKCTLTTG
UniProt Q9BY41, sequence (whole entry, looked up): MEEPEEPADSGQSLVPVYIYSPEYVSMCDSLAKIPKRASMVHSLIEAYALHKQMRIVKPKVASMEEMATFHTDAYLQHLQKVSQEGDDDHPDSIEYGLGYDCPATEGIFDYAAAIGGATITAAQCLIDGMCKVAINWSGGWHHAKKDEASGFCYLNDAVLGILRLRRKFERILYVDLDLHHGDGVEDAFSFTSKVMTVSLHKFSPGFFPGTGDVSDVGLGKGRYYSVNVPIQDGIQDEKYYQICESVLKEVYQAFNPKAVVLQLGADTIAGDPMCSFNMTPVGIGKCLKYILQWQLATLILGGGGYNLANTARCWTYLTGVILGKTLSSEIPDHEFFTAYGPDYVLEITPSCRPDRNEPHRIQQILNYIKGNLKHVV

SMILES	target	test	system	setting	how to read	quantity	result
CC(C=CC=C(C)C=CC1=C(C)CCCC1(C)C)=CC=O	Rhodopsin (RHO, Homo sapiens, UniProt P08100, T17M)	ER retention, immunostaining co-localization, refers to: opsin with calnexin	COS-7 transfected T17M	30.00 µM		Pearson correlation coefficient	0.44
Cc1cc(=O)oc2cc(NC(=O)CCCCCCC(=O)NO)ccc12	Histone deacetylase 8 (HDAC8, Homo sapiens, UniProt Q9BY41)	ITC	Hepes buffer	concentration not given, pH 7.5		binding stoichiometry	0.9
C[n+]1cn(C2OC(COP(=O)(O)OP(=O)([O-])C(Cl)(Cl)P(=O)(O)O)C(O)C2O)c2nc(N)nc(O)c21 (stereo not shown)	DCPS	substrate, HPLC		concentration not given, 120 min		hydrolysis	1.7 ± 0.7%
CC(=O)N1c2ccc(-c3ccc(CNC(=O)c4cn5cc(-c6cnc(N)nc6)nc(N6CCOCC6)c5n4)cc3)cc2CC[C@@H]1C	Bromodomain and PHD finger-containing protein 3 (BRPF3, Homo sapiens, UniProt Q9ULD4)	binding, competition with immobilised ligand		10 µM		remaining binding	100%
CC(=O)N[C@@H](C(=O)N[C@@H](CCCC(=O)O)C(=O)N[C@@H](CCC1CCCCC1)C(=O)N[C@@H](CC(=O)O)C(=O)COC(=O)c1c(C)cccc1C)C1CCCCC1	CASP8	enzyme activity, inhibitor				kinact/KI	966000 M⁻¹ s⁻¹
Fc1ccc(Nc2nc(NC3CCCCC3)c3ccccc3n2)cc1F	Beta-2 adrenergic receptor (ADRB2, Homo sapiens, UniProt P07550, Q170L)	β-arrestin2 recruitment, antagonist, BRET		mutant Q170L	baseline: isoprenaline maximal response	maximal inhibition	-5.4%
Cc1cnc2nc1Nc1cccc(c1)COC/C=C/COCc1cc(ccc1OCCN1CCOCC1)N2	Cyclin-dependent kinase 13 (CDK13, Homo sapiens, UniProt Q14004)			concentration not given, gene name CDC2L5		percent of control	76%
C[n+]1cn([C@@H]2O[C@H](COP(=O)([O-])OP(=O)(O)CP(=O)(O)O)[C@@H](O)[C@H]2O)c2nc(N)nc(O)c21	DCPS	substrate, HPLC		concentration not given, 120 min		hydrolysis	0%
C#CCOC(=O)[C@]1(C)C=C(C(=O)OC(C)(C)C)C(=O)CC1	Mitogen-activated protein kinase 8 (MAPK8, Homo sapiens, UniProt P45983)	enzyme activity, D-SENSOR		133.3 µM, single replicate		normalized kinase activity	0.258 and 0.308 and 0.279
C=CC(=O)N1CCCC(n2c(=O)c3ncccc3n(Cc3ccc(Oc4ccccc4)cc3)c2=O)C1 (stereo not shown)	Tyrosine--tRNA ligase, cytoplasmic (YARS1, Homo sapiens, UniProt P54577)	thermal proteome profiling, refers to: YARS		treated		melting temperature	43.2 °C and 48.8 °C
C=C1C(=O)C2(C(=O)N3CCCC3)CC(=O)CC1C2 (racemic)	PTPN11	enzyme activity, covalent inhibitor		added: pNPP substrate		kinact/KI	13.4 M⁻¹ s⁻¹
O=C(c1ccc(C(=O)N2CCC(N3CCCCC3)CC2)cc1)N1CCC(N2CCCCC2)CC1	Lethal(3)malignant brain tumor-like protein 3, MBT domains (Homo sapiens, UniProt Q96JM7)	FRAP	human cells	1 µM		diffusion coefficient	0.124 µm2/s
CCCCCC(O)/C=C/C=O (stereo not shown)	S-formylglutathione hydrolase (Homo sapiens, UniProt P10768)	acylphosphate-ATP probe SILAC-ABPP, refers to: ESD	ZAK-transfected HEK293T	100 µM, added: acylphosphate-ATP probe	baseline: DMSO over compound-treated	probe labelling ratio	0.61
Cc1cn(CC(=O)N(CC(=O)N[C@H]2COC[C@@H]2N(CC(=O)NCCOCCOCC(N)=O)C(=O)Cn2cnc3c(N)ncnc32)[C@H]2COC[C@@H]2NC(=O)CN(C(=O)Cn2cnc3c(N)ncnc32)[C@H]2COC[C@@H]2NC(=O)CN(C(=O)Cn2cnc3c(=O)[nH]c(N)nc32)[C@H]2COC[C@@H]2NC(=O)CN(C(=O)Cn2cc(C)c(=O)[nH]c2=O)[C@H]2COC[C@@H]2NC(=O)CN(C(=O)Cn2cnc3c(=O)[nH]c(N)nc32)[C@H]2COC[C@@H]2NC(=O)CN(C(=O)Cn2cc(C)c(=O)[nH]c2=O)[C@H]2COC[C@@H]2NC(=O)CN(C(=O)Cn2cnc3c(N)ncnc32)[C@H]2COC[C@@H]2NC(=O)CN(C(=O)Cn2cnc3c(=O)[nH]c(N)nc32)[C@H]2COC[C@@H]2N)c(=O)[nH]c1=O	complementary DNA	duplex formation, UV melting curve fit	PBS	1 µM, fit parameter α 0.5		Tm	76.1 ± 0.3 °C
CN(C)Cc1ccc(-c2coc3cc(O)ccc3c2=O)cc1	HSD3B1	[3H]-DHEA conversion	LNCaP	0.1 µM, normalized to protein, unit not given	baseline: vehicle	DHEA metabolism	0
CC(=O)N[C@H](C(=O)N[C@@H](CCC(=O)O)C(=O)N[C@@H](CCCCN(C)C)C(=O)N[C@@H](CC(=O)O)C(=O)COC(=O)c1c(C)cccc1C)C(C)C	CASP8	enzyme activity, inhibitor				kinact/KI	530000 M⁻¹ s⁻¹
CC[C@H](C)[C@H](NC(=O)[C@@H](NC(=O)[C@@H](NC(=O)[C@@H](NC(=O)[C@@H](N)CCCCN)C(C)C)C(C)C)C(C)C)C(=O)N[C@H](C(N)=O)[C@@H](C)O	Microtubule-associated protein tau (MAPT, Homo sapiens, UniProt P10636)	fibril formation, ThT fluorescence		5-fold of tau, at plateau, added: wild-type tau 10 µM, heparin	baseline: untreated	ThT fluorescence	33 ± 10%
CC(=O)N[C@@H](CC(C)C)C(=O)N[C@@H](CCC(=O)O)C(=O)N[C@@H](Cc1c[nH]cn1)C(=O)N[C@@H](CC(=O)O)C(=O)COC(=O)c1c(C)cccc1C	CASP10	enzyme activity, inhibitor				kinact/KI	370000 M⁻¹ s⁻¹
O=C(O[C@@H]1Cc2c(O)cc(O)cc2O[C@@H]1c1cc(O)c(O)c(O)c1)c1cc(O)c(O)c(O)c1	Microtubule-associated protein tau, AD brain-derived fibrils (MAPT, Homo sapiens, UniProt P10636)	tau fibril disaggregation, negative-stain EM	AD brain tau fibrils	concentration not given, 48 h		reduction of fibril density	70 to 80%

SMILES	target	test	system	setting	how to read	quantity	result
CC[C@H](NC(=O)[C@@H](NC(=O)[C@H](CC(=O)O)NC(C)=O)[C@@H](C)O)C(=O)N[C@@H](CC(=O)O)C(=O)COC(=O)c1c(C)cccc1C	CASP8	enzyme activity, inhibitor				kinact/KI	141000 M⁻¹ s⁻¹
CC(C)Oc1cc(Cl)ccc1CNc1cc(-c2ccccc2)nc2ncnn12	G-protein coupled receptor 3 (GPR3, Homo sapiens, UniProt P46089)	cAMP reporter	human cells	3 µM	higher is more cAMP	cAMP luminescence	4280 a.u. and 2800 a.u. and 3240 a.u. and 2680 a.u. and 12600 a.u. and 12500 a.u. and 5250 a.u.
C[Si](C)(C)C[C@@H](CN)CC(=O)O	L-type calcium channel, rat	binding, radioligand binding		75 µM, added: [3H]diltiazem		inhibition	8%
C[C@](C(=O)NC1CCOCC1)(c1cncnc1)N(C(=O)[C@H](F)Cl)c1ccc(OC(F)(F)Cl)cc1	Vitamin K-dependent protein C (PROC, Homo sapiens, UniProt P04070)	enzyme activity, inhibitor		10 µM		remaining activity	99.2%
CC(=O)N1C[C@H](O)C[C@H]1C(=O)N[C@H](C(=O)N[C@@H](CO)C(=O)N[C@@H](CC(=O)O)C(=O)COC(=O)c1c(C)cccc1C)C(C)(C)C	CASP8	inhibitor		recombinant enzyme		kobs/[I]	1.26e+06 M⁻¹ s⁻¹
CC(C)[C@@H]1NC(=O)[C@H](Cc2ccccc2)NC(=O)CSC[C@@H](C(N)=O)NC(=O)[C@H](CCC(=O)O)NC(=O)[C@H](CO)NC(=O)[C@H](Cc2c[nH]c3cccc(Cl)c23)NC(=O)[C@H](C2CCCCC2)NC(=O)[C@H](C(C)C)NC(=O)[C@H](Cc2ccc(O)cc2)NC(=O)[C@H](CC(=O)O)NC(=O)[C@H](Cc2c[nH]c3ccccc23)NC(=O)[C@H](Cc2ccc(N)nc2)NC(=O)[C@H](Cc2c[nH]c3ccc(Cl)cc23)NC(=O)[C@H](CCC(=O)O)NC1=O	Interleukin-1 receptor-like 2 (IL1RL2, Homo sapiens, UniProt Q9HB29)	reporter gene (SEAP), inhibitor, HEK-Blue IL-36R reporter	HEK-Blue IL-36R cells	0.046 µM, 6 h, added: IL-36β 10 ng/mL		remaining activity	102%
CC(=O)N[C@@H](CO)C(=O)N[C@H](C(=O)N1CCC[C@H]1C(=O)N[C@@H](CC(=O)O)C(=O)COC(=O)c1c(C)cccc1C)C(C)(C)C	CASP10	enzyme activity, inhibitor				kinact/KI	137000 M⁻¹ s⁻¹
Cc1cc(=O)oc2c(F)c(OP(=O)(O)O)c(F)cc12	PTPN11	dephosphorylation, substrate		fully activated enzyme		Km	700 ± 40 µM
CC(=O)N1C[C@H](O)C[C@H]1C(=O)N[C@@H](CC(C)C)C(=O)N[C@@H](C)C(=O)N[C@@H](CC(=O)O)C(=O)COC(=O)c1c(C)cccc1C	CASP8	inhibitor		recombinant enzyme		kobs/[I]	2.9e+06 M⁻¹ s⁻¹
O=c1c(-c2ccc(CN3CCCC3)cc2)coc2cc(O)ccc12	HSD3B1	[3H]-DHEA conversion	LNCaP	0.1 µM, normalized to protein, unit not given	baseline: vehicle	DHEA metabolism	0.35
CC(=O)N1CCC[C@H]1C(=O)N[C@H](C(=O)NCC(=O)N[C@@H](CC(=O)O)C(=O)COC(=O)c1c(C)cccc1C)C(C)(C)C	CASP10	enzyme activity, inhibitor				kinact/KI	15400 M⁻¹ s⁻¹
Cc1ccc2[nH]c(=O)cc(NCCO)c2c1	Alpha-1A adrenergic receptor (ADRA1A, Homo sapiens, UniProt P35348)	intracellular Ca2+ mobilization, agonist	COS-7	500 µM	baseline: 3 µM ionomycin	agonist activity	0.44 ± 0.19%
CCCCCCCCCCCCC/C=C/C=O	FAS-associated death domain protein (FADD, Homo sapiens, UniProt Q13158)	competitive isoTOP-ABPP	Ramos soluble proteome	100 µM, added: iodoacetamide probe	baseline: DMSO over compound-treated, higher = stronger cysteine blockade	isoTOP-ABPP competition ratio	1
CC[C@H](C)[C@H](NC(=O)[C@@H](NC(=O)[C@H](CCCCN)NC(=O)[C@@H](NC(=O)CNC(=O)[C@@H](N)CCCNC(=N)N)[C@@H](C)O)C(C)C)C(=O)N[C@@H](CC(C)C)C(=O)N[C@@H](Cc1c[nH]cn1)C(=O)N[C@@H](CC(C)C)C(N)=O	Microtubule-associated protein tau, PHF6* peptide (MAPT, Homo sapiens, UniProt P10636)	fibril formation, ThT fluorescence		1-fold of peptide, pH 7.4, added: Ac-PHF6* 25 µM, heparin	baseline: untreated	ThT fluorescence	3 ± 1%
O=C1c2sc(-c3ccc(N4CCC(F)C4)nc3F)nc2CCN1c1cccnc1 (stereo not shown)	TAR DNA-binding protein 43, aggregated (TARDBP, Homo sapiens, UniProt Q13148)	binding, surface plasmon resonance	brain-derived TDP-43 aggregates	300 nM		SPR response	1.66 RU
OCC1OC(n2cnc3c(NCc4ccc(Br)s4)ncnc32)C(O)C1O (stereo not shown)	Equilibrative nucleoside transporter 1 (SLC29A1, Homo sapiens, UniProt Q99808)	binding, [3H]NBMPR radioligand binding	U-937 cells			Hill coefficient	0.78
CCCCCC=CC=C1C(=O)C=CC1CC=CCCCC(=O)O (stereo not shown)	F-box only protein 30 (FBXO30, Homo sapiens, UniProt Q8TB52)	competitive isoTOP-ABPP	Ramos soluble proteome	100 µM, 60 min, added: iodoacetamide probe	baseline: DMSO over compound-treated, higher = stronger cysteine blockade	isoTOP-ABPP competition ratio	9.6
N[C@H]1CC[C@H](Nc2nccc(-c3cccnc3Oc3ccc(NC(=O)NC4CC4)c4ccccc34)n2)CC1	Small ribosomal subunit protein uS3 (Homo sapiens, UniProt P23396)	kinobead competition pulldown, refers to: RPS3	HEK293/HCT116 lysate mixture	10 µM, 1 h, 4 °C	lower = stronger competition	log2 LFQ intensity	23.9 and 23.5
